Published values pooled from the literature.
Lines come from different studies, so protocols differ. ± gives the spread as reported.
Cell line: A-431

Structure (SMILES) | test | conditions | measurement | value
COc1cc(/C=C/C(=O)NCCCCCCNC2=C3C[C@@H](C)C[C@H](OC)[C@H](O)[C@@H](C)/C=C(\C)[C@H](OC(N)=O)[C@@H](OC)/C=C\C=C(/C)C(=O)NC(=CC2=O)C3=O)ccc1O | cell growth or viability, MTT | 72 h | IC50 | 0.685 µM
CC(=O)N[C@H](C(=O)N[C@@H](CCCNC(=N)N)C(=O)N[C@@H](CCCCN)C(=O)N[C@@H](CCCNC(=N)N)C(=O)N[C@H](C(=O)N[C@@H](CC(C)C)C(=O)N[C@@H](CCCNC(=N)N)C(=O)N[C@]1(C)CCCCCCC=CCCC[C@@](C)(C(=O)N[C@H](C(=O)N[C@@H](CCC(=O)O)C(N)=O)C(C)C)NC(=O)[C@H](CCC(=O)O)NC(=O)[C@H](CCCNC(=N)N)NC(=O)[C@H](CCC(=O)O)NC(=O)[C@H](CCC(N)=O)NC(=O)[C@H](CC(C)C)NC(=O)[C@H](CC(C)C)NC1=O)[C@@H](C)O)C(C)C | – | concentration not given, 18 h | viability | inactive
CCCCCCOc1c(O)cc(C(=O)O[C@@H]2Cc3c(O)cc(O)cc3O[C@@H]2c2cc(O)c(O)c(O)c2)cc1O | cell growth, inhibitor, CCK-8 | 24 h | IC50 | 105.9 ± 0.03 µM
CC(C)c1cccc(C(C)C)c1-n1c(Cl)c(Cl)n(-c2c(C(C)C)cccc2C(C)C)c1=[Se].[Cl][Au] | cell growth or viability, MTT | 72 h | IC50 | 0.4 µM
CC(=O)N[C@H](C(=O)N[C@@H](CCCNC(=N)N)C(=O)N[C@@H](CCCCN)C(=O)N[C@@H](CCCNC(=N)N)C(=O)N[C@]1(C)CCCCCCC=CCCC[C@@](C)(C(=O)N[C@@H](CCCNC(=N)N)C(=O)N[C@@H](CCC(=O)O)C(=O)N[C@@H](CC(C)C)C(=O)N[C@H](C(=O)N[C@@H](CCC(=O)O)C(N)=O)C(C)C)NC(=O)[C@H](CCC(N)=O)NC(=O)[C@H](CC(C)C)NC(=O)[C@H](CC(C)C)NC(=O)[C@H](CCCNC(=N)N)NC(=O)[C@H](CCCNC(=N)N)NC(=O)[C@H](CC(C)C)NC1=O)C(C)C | immunoblot, refers to: EGFR, Akt, Erk | concentration not given, 2 h, added: 10 ng/mL EGF | total protein level | no effect
CC(=O)N[C@@H](CC[S+](C)[Ru-4]123([S+](C)CC[C@H](NC(C)=O)C(=O)O)[n+]4ccc5ccccc5c4Nc4cccc([n+]41)-c1cccc([n+]12)Nc1c2ccccc2cc[n+]13)C(=O)[O-].F[P-](F)(F)(F)(F)F (stereo partly shown) | cytotoxicity | dark, 6 and 24 h | EC50 | ~35 µM
CCOC(=O)/C(=N\Nc1ccc(S(=O)(=O)Nc2ncccn2)cc1)C(=O)c1ccccc1 | cell growth or viability, MTT | 48 h | IC50 | 13.9 µM
CC(C)c1cccc(C(C)C)c1N1CCN(c2c(C(C)C)cccc2C(C)C)C1=[Se].[Cl][Ag] | cell growth or viability, MTT | 72 h | IC50 | 0.6 µM
C#Cc1cccc(Nc2ncnc3cc(OC)c(OCCCN4CCOCC4)cc23)c1 | cell growth or viability, SRB | 72 h | IC50 | < 1 µM
CCCC(C)NC(=O)C(Nc1ccccc1C(=O)c1ccccc1)c1cn(C)c2ccccc12 (stereo not shown) | cell growth or viability, MTT | 72 h | GI50 | 11 µM
CCCCCCCCOc1c(O)cc(C(=O)O[C@@H]2Cc3c(O)cc(O)cc3O[C@@H]2c2cc(O)c(O)c(O)c2)cc1O | cell growth or viability, CCK-8 | 24 h | IC50 | 109 µM
CC(C)c1cccc(C(C)C)c1-n1ccn(-c2c(C(C)C)cccc2C(C)C)c1=[Se].[Cl][Au] | cell growth or viability, MTT | 72 h | IC50 | 9.2 µM
CCCCCCCCCCCCCCOc1c(O)cc(C(=O)O[C@@H]2Cc3c(O)cc(O)cc3O[C@@H]2c2cc(O)c(O)c(O)c2)cc1O | cell growth or viability, CCK-8 | 24 h | IC50 | 30.5 µM
COCC1CN(C2CCN(c3cc(OC)c(Nc4ncc(Br)c(Nc5ccc6c(c5P(C)(C)=O)OCCO6)n4)cc3C)CC2)C1 | cell growth or viability, ATP luminescence | 72 h | IC50 | 0.149 µM
CCCCCCCCCCCCOc1c(O)cc(C(=O)O[C@@H]2Cc3c(O)cc(O)cc3O[C@@H]2c2cc(O)c(O)c(O)c2)cc1O | cell growth or viability, CCK-8 | 24 h | IC50 | 50.5 µM
O=C(/C=C/c1ccc2c(c1)C(=O)N(CCCc1ccccc1)CC2)NO | cell growth, SRB | 72 h | IC50 | 2.31 ± 0.41 µM

Excerpt of the above:
Structure (SMILES) | test | conditions | measurement | value
CCCCCCCCCCCCCCOc1c(O)cc(C(=O)O[C@@H]2Cc3c(O)cc(O)cc3O[C@@H]2c2cc(O)c(O)c(O)c2)cc1O | cell growth or viability, CCK-8 | 24 h | IC50 | 30.5 µM
